Measured values gathered from unrelated publications.
Every numbered part comes from another study and shows a few of its results, in no order.
Sequence of UniProt Q9UK32 (whole entry, looked up): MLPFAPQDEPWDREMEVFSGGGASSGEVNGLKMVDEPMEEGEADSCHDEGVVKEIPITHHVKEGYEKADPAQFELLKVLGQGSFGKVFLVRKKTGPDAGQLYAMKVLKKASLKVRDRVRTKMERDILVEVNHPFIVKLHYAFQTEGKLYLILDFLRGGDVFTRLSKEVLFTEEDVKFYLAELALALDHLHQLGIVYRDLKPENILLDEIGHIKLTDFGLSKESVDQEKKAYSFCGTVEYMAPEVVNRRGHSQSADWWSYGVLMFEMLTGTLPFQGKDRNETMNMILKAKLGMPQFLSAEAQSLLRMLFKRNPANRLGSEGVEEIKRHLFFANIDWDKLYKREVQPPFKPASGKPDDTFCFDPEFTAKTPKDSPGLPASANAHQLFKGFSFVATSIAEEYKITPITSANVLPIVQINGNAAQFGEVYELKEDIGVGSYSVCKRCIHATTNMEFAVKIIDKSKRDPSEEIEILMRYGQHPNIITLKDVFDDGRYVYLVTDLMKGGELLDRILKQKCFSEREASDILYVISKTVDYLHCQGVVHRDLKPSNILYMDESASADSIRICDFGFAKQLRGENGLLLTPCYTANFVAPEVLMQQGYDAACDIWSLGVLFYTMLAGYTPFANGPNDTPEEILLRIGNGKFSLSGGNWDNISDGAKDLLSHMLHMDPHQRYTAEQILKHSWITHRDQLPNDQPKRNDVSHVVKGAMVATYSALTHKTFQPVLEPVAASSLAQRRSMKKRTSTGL
Sequence of UniProt Q9UEE5 (whole entry, looked up): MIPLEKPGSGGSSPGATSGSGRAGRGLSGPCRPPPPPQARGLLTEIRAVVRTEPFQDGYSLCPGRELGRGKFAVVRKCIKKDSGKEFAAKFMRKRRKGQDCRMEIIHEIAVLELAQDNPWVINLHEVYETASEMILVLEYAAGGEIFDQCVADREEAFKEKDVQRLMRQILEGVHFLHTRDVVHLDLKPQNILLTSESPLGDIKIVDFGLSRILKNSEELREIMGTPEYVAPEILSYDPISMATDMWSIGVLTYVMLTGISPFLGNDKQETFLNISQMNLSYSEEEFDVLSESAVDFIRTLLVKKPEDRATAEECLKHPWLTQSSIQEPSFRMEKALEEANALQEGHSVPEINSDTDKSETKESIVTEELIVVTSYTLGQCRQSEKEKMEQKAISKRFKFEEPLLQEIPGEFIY
Sequence of UniProt Q9NRH2 (whole entry, looked up): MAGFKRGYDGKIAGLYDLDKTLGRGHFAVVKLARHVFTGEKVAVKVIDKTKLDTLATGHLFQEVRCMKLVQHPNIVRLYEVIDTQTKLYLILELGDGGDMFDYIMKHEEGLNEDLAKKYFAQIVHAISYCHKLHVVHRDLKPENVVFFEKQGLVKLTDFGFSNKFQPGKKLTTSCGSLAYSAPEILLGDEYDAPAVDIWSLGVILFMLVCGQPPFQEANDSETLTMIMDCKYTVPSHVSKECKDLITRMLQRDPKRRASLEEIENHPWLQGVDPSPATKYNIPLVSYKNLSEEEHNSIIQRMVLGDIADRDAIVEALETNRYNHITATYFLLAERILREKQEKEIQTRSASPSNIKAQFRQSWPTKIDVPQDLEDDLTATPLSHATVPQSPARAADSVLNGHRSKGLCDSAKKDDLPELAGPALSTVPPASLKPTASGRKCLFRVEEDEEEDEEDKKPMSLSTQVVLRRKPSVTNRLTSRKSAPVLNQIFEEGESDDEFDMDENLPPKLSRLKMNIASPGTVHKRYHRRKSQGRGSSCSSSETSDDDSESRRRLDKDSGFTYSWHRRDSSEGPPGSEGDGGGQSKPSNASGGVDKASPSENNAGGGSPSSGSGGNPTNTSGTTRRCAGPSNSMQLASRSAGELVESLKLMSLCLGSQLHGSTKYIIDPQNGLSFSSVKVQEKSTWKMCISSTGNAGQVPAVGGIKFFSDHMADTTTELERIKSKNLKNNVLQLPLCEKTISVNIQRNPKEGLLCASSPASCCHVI
Sequence of UniProt P54764 (whole entry, looked up): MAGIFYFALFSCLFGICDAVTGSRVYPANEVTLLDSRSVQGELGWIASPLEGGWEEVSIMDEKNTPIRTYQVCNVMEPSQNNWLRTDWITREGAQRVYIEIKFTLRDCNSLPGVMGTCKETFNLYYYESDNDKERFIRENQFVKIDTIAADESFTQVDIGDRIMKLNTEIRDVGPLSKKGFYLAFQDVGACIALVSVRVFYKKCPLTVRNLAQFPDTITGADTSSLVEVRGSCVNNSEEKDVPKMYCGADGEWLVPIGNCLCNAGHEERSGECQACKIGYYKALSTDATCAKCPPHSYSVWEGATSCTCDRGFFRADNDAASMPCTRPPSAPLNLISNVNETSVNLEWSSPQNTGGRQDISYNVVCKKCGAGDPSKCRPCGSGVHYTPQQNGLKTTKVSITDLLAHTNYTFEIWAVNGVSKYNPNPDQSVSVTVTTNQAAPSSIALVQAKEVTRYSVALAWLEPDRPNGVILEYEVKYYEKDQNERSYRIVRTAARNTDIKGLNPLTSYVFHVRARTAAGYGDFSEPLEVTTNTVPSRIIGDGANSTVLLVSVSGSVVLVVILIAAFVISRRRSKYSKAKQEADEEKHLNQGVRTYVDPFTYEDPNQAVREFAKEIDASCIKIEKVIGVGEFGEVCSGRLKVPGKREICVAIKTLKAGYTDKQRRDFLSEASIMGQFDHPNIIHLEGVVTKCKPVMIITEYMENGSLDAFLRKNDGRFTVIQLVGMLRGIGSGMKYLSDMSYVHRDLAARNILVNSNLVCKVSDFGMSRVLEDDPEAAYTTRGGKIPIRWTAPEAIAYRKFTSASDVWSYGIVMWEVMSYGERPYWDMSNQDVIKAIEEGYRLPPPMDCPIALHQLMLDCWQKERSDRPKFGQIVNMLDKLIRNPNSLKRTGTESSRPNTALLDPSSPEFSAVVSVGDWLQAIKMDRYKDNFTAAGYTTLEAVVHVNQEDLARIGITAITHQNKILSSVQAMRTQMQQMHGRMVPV
Sequence of UniProt O75582 (whole entry, looked up): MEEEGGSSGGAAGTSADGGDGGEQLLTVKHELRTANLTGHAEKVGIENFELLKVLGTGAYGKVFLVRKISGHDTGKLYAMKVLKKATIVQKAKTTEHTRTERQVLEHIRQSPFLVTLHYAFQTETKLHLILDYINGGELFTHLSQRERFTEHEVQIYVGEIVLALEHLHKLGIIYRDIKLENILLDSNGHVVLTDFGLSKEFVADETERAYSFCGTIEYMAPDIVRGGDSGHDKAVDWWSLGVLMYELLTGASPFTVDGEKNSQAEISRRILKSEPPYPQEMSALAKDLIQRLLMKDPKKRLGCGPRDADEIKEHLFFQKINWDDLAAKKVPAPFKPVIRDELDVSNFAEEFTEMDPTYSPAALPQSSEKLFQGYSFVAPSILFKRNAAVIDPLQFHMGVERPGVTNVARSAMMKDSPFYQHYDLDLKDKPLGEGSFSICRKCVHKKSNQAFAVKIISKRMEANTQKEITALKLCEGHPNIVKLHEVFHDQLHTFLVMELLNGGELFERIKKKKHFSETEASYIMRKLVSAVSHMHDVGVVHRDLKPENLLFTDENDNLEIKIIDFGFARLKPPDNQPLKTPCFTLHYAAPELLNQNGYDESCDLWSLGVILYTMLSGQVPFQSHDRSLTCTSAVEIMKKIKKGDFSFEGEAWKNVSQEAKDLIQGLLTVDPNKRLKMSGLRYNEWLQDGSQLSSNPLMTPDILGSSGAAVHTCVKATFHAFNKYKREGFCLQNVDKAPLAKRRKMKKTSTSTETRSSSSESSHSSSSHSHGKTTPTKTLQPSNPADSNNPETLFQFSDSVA
Sequence of UniProt O00506 (whole entry, looked up): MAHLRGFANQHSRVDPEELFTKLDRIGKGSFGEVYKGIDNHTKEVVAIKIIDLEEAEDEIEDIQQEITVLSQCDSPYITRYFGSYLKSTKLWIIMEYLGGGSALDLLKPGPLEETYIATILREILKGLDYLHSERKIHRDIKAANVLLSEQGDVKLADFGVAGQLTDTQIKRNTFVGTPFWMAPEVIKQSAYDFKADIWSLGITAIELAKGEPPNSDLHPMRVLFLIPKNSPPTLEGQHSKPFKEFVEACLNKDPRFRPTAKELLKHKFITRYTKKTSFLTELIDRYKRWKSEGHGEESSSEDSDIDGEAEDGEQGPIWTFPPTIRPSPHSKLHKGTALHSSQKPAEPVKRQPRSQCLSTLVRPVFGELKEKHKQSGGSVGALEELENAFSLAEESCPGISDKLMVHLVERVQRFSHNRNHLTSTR
Sequence of UniProt Q9H3Y6 (whole entry, looked up): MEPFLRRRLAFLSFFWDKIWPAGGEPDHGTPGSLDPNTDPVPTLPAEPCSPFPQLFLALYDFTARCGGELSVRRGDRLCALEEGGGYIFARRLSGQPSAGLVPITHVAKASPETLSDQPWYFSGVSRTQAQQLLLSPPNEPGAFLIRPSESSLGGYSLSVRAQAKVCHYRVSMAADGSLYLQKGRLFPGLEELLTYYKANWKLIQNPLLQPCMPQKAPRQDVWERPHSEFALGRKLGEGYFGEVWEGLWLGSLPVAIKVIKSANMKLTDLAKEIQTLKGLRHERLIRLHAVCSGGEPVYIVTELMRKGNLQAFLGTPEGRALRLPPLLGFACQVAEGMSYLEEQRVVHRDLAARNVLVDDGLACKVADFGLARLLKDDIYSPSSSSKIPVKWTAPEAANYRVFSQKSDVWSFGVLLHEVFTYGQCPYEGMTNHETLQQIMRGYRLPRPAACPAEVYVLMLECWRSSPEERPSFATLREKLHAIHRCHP
Sequence of UniProt Q16816 (whole entry, looked up): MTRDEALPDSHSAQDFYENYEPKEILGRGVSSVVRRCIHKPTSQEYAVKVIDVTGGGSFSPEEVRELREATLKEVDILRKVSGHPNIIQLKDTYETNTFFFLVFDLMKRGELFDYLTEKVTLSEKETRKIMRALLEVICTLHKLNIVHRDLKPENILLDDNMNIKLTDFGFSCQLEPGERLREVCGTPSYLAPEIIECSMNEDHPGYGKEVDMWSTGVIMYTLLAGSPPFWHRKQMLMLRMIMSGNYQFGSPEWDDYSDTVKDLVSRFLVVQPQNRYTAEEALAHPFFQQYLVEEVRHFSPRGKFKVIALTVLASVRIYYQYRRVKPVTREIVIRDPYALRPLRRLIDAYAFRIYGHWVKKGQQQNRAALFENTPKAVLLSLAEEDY

Sample 1
Target: Histone acetyltransferase KAT6A, both winged helices, GST fusion (KAT6A, Homo sapiens, UniProt Q92794, residues 1-181)
Technique: protein binding microarray
Form: double-stranded DNA, one strand shown
Matrix: in vitro
Concentration: not given
Notes: 8-mer, flanks averaged, mean of 2 arrays, mostly near background
Baseline: not given
Direction: higher = stronger binding
Target sequence (chain): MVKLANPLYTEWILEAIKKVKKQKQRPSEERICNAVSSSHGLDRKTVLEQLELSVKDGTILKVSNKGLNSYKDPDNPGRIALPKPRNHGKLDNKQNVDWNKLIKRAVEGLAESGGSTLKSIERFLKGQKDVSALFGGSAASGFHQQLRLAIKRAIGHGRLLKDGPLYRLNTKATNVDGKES
Sequence	E-score
GCGGTACA	0.246
AGCATAGA	-0.0337
CATGCTCC	-0.0452
CACATCCC	-0.0337
CCCTCACA	-0.108
AGGAGCAG	-0.079
ATAGGAAA	-0.0747
ATGTCAAT	-0.0496

Sample 2
Structure (SMILES): O=C(N1CCS(=O)(=O)CC1)N1C[C@H](c2ccc(OC(F)(F)F)cc2)C[C@H](c2nc(C3CC3)no2)C1
Observed: cell-free assay
Technique: competition with immobilised ligand
Concentration: 1 µM
target	remaining binding [%]
Epidermal growth factor receptor (EGFR, Homo sapiens, UniProt P00533, del747-750/T751S)	77
Serine/threonine-protein kinase 25 (STK25, Homo sapiens, UniProt O00506)	93
SNF-related serine/threonine-protein kinase (SNRK, Homo sapiens, UniProt Q9NRH2)	93
Hepatocyte growth factor receptor (MET, Homo sapiens, UniProt P08581, Y1235D)	100
Mast/stem cell growth factor receptor Kit (KIT, Homo sapiens, UniProt P10721, L576P)	100
Interferon-induced, double-stranded RNA-activated protein kinase (EIF2AK2, Homo sapiens, UniProt P19525)	100
Receptor-type tyrosine-protein kinase FLT3 (FLT3, Homo sapiens, UniProt P36888, K663Q)	100
Serine/threonine-protein kinase MARK2 (MARK2, Homo sapiens, UniProt Q7KZI7)	100

Sample 3
SMILES: O=c1c(-c2ccc(F)cc2)c(-c2ccncc2)[nH]n1-c1ccc(Cl)cc1
Observed: enzyme activity
Mode: inhibitor
Concentration: 0.5 µM
Baseline: control
target	remaining activity [%]
Mitogen-activated protein kinase kinase kinase kinase 4 (MAP4K4, Homo sapiens, UniProt O95819)	93.5
Testis-specific serine/threonine-protein kinase 2 (TSSK2, Homo sapiens, UniProt Q96PF2)	80
Serine/threonine-protein kinase 17A (STK17A, Homo sapiens, UniProt Q9UEE5)	105
Tyrosine-protein kinase Srms (SRMS, Homo sapiens, UniProt Q9H3Y6)	104
Ephrin type-B receptor 1 (EPHB1, Homo sapiens, UniProt P54762)	90.5
Ribosomal protein S6 kinase alpha-5 (RPS6KA5, Homo sapiens, UniProt O75582)	93.5
Serine/threonine-protein kinase WNK3 (WNK3, Homo sapiens, UniProt Q9BYP7)	93.6
Phosphorylase b kinase gamma catalytic chain, skeletal muscle/heart isoform (PHKG1, Homo sapiens, UniProt Q16816)	94.1
Tyrosine-protein kinase Blk (BLK, Homo sapiens, UniProt P51451)	91.6
Ephrin type-A receptor 4 (EPHA4, Homo sapiens, UniProt P54764)	93.5
Ribosomal protein S6 kinase alpha-6 (RPS6KA6, Homo sapiens, UniProt Q9UK32)	90.3

Sample 4
Target: TAR DNA-binding protein 43, full length, His tag (TARDBP, Homo sapiens, UniProt Q13148, residues 1-414)
Technique: RNA Bind-n-Seq
Form: RNA
Matrix: in vitro
Concentration: 20 nM
Notes: 6-mer, flanks averaged, single round
Added: 150 mM KCl
Baseline: input library
Direction: higher = stronger binding
Sequence	6-mer enrichment (R)
UAUACU	0.57
AAAUCG	0.599
GGACCU	0.962
AAAGAG	0.956
CCCUCA	0.622
ACGGGC	2.15
GGUUGC	1.34
ACAGAU	0.628

Excerpt of the above (sample 2):
target	remaining binding [%]
Hepatocyte growth factor receptor (MET, Homo sapiens, UniProt P08581, Y1235D)	100
Mast/stem cell growth factor receptor Kit (KIT, Homo sapiens, UniProt P10721, L576P)	100
Interferon-induced, double-stranded RNA-activated protein kinase (EIF2AK2, Homo sapiens, UniProt P19525)	100
Receptor-type tyrosine-protein kinase FLT3 (FLT3, Homo sapiens, UniProt P36888, K663Q)	100
Serine/threonine-protein kinase MARK2 (MARK2, Homo sapiens, UniProt Q7KZI7)	100
